{"data": "Assay results of several laboratories", "14-3-3 protein beta/alpha": "14-3-3 protein beta/alpha (Homo sapiens, UniProt P31946)", "note": "Each line is one published result; not all experiments were run side by side. Several values in a cell are separate wells, animals, samples, runs or records.", "chain of UniProt P33913 (whole entry, unmodified, looked up)": "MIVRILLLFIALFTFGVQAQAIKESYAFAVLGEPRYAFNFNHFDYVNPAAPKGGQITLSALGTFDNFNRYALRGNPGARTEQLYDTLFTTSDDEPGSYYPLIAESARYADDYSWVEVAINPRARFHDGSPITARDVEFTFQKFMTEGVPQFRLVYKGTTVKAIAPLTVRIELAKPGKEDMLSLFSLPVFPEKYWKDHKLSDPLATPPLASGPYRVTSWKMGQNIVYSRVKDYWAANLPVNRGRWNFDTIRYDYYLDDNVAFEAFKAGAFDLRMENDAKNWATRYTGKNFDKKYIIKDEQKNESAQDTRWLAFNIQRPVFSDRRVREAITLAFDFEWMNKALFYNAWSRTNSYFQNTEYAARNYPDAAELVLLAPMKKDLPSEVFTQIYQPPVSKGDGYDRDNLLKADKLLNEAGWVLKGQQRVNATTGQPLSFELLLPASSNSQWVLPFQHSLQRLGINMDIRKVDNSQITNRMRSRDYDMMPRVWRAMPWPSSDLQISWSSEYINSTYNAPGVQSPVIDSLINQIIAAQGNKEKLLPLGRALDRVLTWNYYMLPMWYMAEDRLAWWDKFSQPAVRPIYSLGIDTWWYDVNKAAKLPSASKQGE", "chain of UniProt P31946 (whole entry, looked up)": "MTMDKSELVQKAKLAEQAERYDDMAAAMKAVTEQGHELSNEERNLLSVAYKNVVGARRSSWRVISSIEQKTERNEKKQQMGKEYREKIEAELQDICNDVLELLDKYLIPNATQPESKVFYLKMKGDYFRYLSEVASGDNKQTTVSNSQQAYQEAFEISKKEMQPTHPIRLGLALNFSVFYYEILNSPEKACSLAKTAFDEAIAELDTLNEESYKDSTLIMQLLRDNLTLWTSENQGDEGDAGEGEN", "chain of UniProt P43220 (whole entry, looked up)": "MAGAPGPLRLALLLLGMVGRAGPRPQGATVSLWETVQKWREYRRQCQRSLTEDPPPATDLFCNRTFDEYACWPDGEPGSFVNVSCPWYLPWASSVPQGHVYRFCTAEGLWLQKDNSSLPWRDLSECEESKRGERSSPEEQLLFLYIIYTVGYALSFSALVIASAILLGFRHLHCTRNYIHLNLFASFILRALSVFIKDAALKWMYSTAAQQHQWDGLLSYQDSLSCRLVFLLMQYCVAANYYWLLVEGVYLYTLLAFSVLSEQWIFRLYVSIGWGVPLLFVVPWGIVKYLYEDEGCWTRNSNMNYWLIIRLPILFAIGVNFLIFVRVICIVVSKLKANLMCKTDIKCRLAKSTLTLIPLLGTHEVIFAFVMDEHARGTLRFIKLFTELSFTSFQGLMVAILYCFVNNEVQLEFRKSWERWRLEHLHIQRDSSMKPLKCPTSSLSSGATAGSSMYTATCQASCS", "chain of UniProt Q9BYT3 (whole entry, looked up)": "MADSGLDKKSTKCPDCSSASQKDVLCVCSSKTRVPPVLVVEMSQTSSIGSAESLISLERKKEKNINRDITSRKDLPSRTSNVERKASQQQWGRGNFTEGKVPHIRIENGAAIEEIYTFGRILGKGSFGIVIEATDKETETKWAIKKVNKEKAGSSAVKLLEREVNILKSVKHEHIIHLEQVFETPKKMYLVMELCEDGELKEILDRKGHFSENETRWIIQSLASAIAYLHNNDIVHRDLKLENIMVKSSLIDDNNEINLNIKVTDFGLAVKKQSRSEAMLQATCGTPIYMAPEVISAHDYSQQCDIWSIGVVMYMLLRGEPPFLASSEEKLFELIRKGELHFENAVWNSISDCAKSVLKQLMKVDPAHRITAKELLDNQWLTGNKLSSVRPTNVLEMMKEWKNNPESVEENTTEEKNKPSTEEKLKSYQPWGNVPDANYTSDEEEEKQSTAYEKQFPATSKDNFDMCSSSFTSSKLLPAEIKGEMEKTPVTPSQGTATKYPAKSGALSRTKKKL", "chain of UniProt P01106 (whole entry, looked up)": "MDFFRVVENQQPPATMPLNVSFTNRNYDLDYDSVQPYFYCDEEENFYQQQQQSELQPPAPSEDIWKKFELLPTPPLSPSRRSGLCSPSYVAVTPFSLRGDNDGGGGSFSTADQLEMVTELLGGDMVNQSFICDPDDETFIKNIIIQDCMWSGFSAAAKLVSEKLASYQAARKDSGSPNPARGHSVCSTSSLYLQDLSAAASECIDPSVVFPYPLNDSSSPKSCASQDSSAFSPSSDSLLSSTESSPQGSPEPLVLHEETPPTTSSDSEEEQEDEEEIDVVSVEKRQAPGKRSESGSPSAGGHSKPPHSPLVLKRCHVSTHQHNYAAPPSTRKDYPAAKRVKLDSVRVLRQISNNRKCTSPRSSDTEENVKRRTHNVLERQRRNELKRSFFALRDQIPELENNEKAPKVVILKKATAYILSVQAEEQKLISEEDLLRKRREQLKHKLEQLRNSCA", "chain of UniProt P08238 (whole entry, looked up)": "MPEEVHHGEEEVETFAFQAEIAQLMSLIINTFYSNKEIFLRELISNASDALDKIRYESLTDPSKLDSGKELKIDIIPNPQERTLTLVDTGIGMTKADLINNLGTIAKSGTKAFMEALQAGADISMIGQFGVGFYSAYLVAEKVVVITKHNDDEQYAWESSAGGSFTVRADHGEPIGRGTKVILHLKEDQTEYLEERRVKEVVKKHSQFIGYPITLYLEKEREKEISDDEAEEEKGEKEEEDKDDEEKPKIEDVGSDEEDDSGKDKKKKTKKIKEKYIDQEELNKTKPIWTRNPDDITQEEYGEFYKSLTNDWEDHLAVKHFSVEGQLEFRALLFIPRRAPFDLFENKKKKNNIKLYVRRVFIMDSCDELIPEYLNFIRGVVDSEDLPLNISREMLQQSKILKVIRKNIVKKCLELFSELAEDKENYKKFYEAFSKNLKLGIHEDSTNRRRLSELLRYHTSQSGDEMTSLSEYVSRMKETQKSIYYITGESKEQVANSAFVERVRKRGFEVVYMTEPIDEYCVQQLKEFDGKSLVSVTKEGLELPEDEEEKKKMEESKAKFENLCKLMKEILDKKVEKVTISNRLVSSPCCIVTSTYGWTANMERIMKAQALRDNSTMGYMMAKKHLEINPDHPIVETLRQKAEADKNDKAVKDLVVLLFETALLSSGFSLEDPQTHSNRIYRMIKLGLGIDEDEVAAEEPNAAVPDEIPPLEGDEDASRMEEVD", "chain of UniProt Q9UKE5 (whole entry, looked up)": "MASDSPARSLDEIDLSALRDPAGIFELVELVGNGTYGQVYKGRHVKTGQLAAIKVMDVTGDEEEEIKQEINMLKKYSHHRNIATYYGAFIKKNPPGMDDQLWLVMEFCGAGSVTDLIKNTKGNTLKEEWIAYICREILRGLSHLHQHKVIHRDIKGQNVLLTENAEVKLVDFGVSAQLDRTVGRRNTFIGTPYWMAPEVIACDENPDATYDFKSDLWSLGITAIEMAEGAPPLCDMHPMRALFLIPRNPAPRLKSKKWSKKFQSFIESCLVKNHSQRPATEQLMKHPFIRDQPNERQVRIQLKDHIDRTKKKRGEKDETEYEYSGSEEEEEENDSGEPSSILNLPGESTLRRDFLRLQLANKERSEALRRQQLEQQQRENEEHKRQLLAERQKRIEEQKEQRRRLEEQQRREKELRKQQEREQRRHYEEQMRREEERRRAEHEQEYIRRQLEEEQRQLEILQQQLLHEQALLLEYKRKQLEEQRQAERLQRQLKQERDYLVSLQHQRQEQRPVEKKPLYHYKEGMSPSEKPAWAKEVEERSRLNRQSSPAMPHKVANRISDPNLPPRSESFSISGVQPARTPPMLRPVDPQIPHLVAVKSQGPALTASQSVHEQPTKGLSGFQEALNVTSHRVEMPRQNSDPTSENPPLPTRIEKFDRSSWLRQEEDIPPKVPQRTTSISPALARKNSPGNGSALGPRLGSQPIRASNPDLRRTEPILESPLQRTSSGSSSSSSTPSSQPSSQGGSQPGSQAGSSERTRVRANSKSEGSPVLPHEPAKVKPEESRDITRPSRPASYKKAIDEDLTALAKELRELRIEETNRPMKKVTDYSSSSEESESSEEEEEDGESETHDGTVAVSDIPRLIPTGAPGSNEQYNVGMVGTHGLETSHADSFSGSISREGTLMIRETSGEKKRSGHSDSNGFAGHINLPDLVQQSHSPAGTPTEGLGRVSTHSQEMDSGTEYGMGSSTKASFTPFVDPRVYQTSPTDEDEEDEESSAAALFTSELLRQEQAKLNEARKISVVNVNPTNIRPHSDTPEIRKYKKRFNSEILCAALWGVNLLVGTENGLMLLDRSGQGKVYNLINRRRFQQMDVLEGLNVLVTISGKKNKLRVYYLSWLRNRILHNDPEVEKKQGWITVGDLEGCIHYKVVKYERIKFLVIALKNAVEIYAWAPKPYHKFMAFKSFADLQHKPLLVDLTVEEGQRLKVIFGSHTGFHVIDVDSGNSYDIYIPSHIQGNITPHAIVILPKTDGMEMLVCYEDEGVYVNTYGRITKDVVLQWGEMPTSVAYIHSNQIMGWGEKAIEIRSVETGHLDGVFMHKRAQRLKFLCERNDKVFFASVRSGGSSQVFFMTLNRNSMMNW"}
{"SMILES": "CSCC[C@H](NC=O)C(=O)N[C@@H](CCCNC(=N)N)C(=O)N[C@H](C(=O)NCC(=O)N[C@@H](CC(N)=O)C(=O)N[C@@H](C)C(=O)N[C@@H](CC(N)=O)C(=O)NCC(=O)NCC(=O)N[C@@H](CCCCNC(=S)Nc1ccc2c(c1)C(=O)OC21c2ccc(O)cc2Oc2cc(O)ccc21)C(=O)O)[C@@H](C)O", "target": "Uncharacterized protein YejA (yejA, Escherichia coli, UniProt P33913, S499A)", "test": "binding, fluorescence polarisation", "setting": "YejA variant S481A", "Kd": "0.49 µM and ~0.49 µM"}
{"SMILES": "N[C@H](Cc1ccccc1)P(=O)(O)O", "target": "PAL1 (Petroselinum crispum, UniProt P24481, Y110F)", "test": "ITC", "Kd": "6.2 µM"}
{"SMILES": "CC(C)C[C@H](NC(=O)[C@H](CCCNC(=N)N)NC(=O)[C@H](CC(C)C)NC(=O)[C@H](CO)NC(=S)Nc1ccc2c(c1)C(=O)OC21c2ccc(O)cc2Oc2cc(O)ccc21)C(=O)N[C@@H](CCCCN)C(=O)N[C@@H](CS)C(=O)NCC(=O)N[C@@H](CCP(=O)(O)O)C(=O)NCC(=O)N1CCC[C@H]1C(=O)N[C@H](C(=O)N[C@@H](Cc1c[nH]c2ccccc12)C(=O)N[C@@H](CC(C)C)C(=O)N[C@H](C(=O)N1CCC[C@H]1C(=O)N[C@@H](CCCNC(=N)N)C(=O)O)C(C)C)C(C)C", "target": "14-3-3 protein beta/alpha", "test": "binding, fluorescence anisotropy", "setting": "pH 7.5, FITC-labelled phosphopeptide titration", "Kd": "39.6 µM"}
{"SMILES": "CCCC[C@H](N)C(=O)N[C@H]1CSCCCCCCCCCCSC[C@@H](C(=O)N[C@H](C(N)=O)[C@@H](C)O)NC(=O)[C@H](CCCCN)NC(=O)[C@H](CCCCN)NC(=O)[C@H](CCCCN)NC(=O)[C@H](Cc2ccc(O)cc2)NC(=O)[C@H](CC(N)=O)NC(=O)[C@H](CC(C)C)NC1=O", "target": "GTPase KRas, GDP-bound (KRAS, Homo sapiens, UniProt P01116, C118S/G12V)", "test": "binding, biolayer interferometry", "setting": "GDP-bound form", "Kd": "100 µM"}
{"SMILES": "CC[C@H](C)[C@H](NC(=O)CNC(=O)CNC(=O)CNC(=O)CNC(=O)CNC(=O)[C@@H](NC(=O)[C@H](CCSC)NC(=O)[C@H](CC(C)C)NC(=O)[C@H](CC(N)=O)NC(=O)[C@H](CC(C)C)NC(=O)[C@@H](NC(=O)[C@H](COP(=O)(O)O)NC(=O)[C@H](CCC(N)=O)NC(=O)[C@H](CCCNC(=N)N)NC(=O)[C@H](CCCNC(=N)N)NC(=O)[C@H](CCCNC(=N)N)NC(=O)[C@H](C)NC(=O)[C@H](CCC(N)=O)NC(C)=O)C(C)C)[C@@H](C)O)C(=O)N[C@@H](Cc1ccc(O)cc1)C(=O)N[C@@H](CO)C(=O)N[C@@H](CCCNC(=N)N)C(=O)N[C@@H](CCCNC(=N)N)C(=O)N[C@@H](CC(C)C)C(=O)N[C@@H](COP(=O)(O)O)C(=O)N[C@@H](CCC(N)=O)C(=O)N[C@@H](CCC(=O)O)C(=O)N[C@H](C(=O)NCC(=O)N[C@@H](CC(C)C)C(=O)N[C@@H](CCC(=O)O)C(N)=O)[C@@H](C)O", "target": "14-3-3 protein beta/alpha", "test": "binding, ITC", "setting": "pH 7.4", "Kd": "13 µM"}
{"SMILES": "C=C1NC(=O)[C@H](C)NC(=O)[C@H](Cc2ccccc2)NC(=O)[C@H](CCCNC(=N)N)NC(=O)[C@H](CCSC)NC(=O)CNC(=O)[C@H]([C@@H](C)CC)NC(=O)[C@H](CCC(N)=O)NC(=O)[C@H]([C@@H](C)CC)NC(=O)[C@H](CC(=O)O)NC(=O)[C@H](Cc2c[nH]c3ccccc23)NC(=O)[C@H](Cc2c[nH]c3ccccc23)NC(=O)c2ccc(-c3nc(C(=O)OC)cs3)nc2-c2csc1n2", "target": "TRAF2 and NCK-interacting protein kinase (TNIK, Homo sapiens, UniProt Q9UKE5)", "test": "binding, SPR", "Kd": "0.025 µM"}
{"SMILES": "O=C(N[C@@H]1c2ccccc2C[C@H]1N1CCCC1)c1ccc(-c2ccnc3[nH]ccc23)nc1", "target": "Serine/threonine-protein kinase 33 (STK33, Homo sapiens, UniProt Q9BYT3)", "test": "binding, competition with immobilised ligand", "Kd": "3 µM"}
{"SMILES": "CCCc1cc2cc(-n3nc(CC)c4c3CC3(CCC3)CC4=O)cc(N3CCC(O)CC3)c2c(=O)[nH]1", "target": "Heat shock protein HSP 90-beta (HSP90AB1, Homo sapiens, UniProt P08238)", "test": "fluorescence polarization", "setting": "24 h, 4 °C, together with: FITC-geldanamycin tracer", "Kd": "3.57 µM"}
{"SMILES": "CC[C@H](C)[C@H](NC(=O)[C@H](CCC(=O)O)NC(=O)[C@H](C)NC(=O)[C@H](CCCCN)NC(=O)[C@H](CC(C)C)NC(=O)[C@@H](NC(=O)[C@H](CCC(=O)O)NC(=O)[C@@H](NC(=O)[C@H](CCC(=O)O)NC(=O)[C@H](CC(=O)O)NC(=O)[C@H](C)NC(=O)[C@@H](NC(=O)[C@@H](NC(=O)[C@H](C)NC(=O)[C@H](C)NC(C)=O)C(C)C)[C@@H](C)O)[C@@H](C)O)C(C)C)C(=O)N[C@H]1CSCc2cccc(c2)CSC[C@@H](C(=O)N[C@@H](CCC(N)=O)C(=O)N[C@H](C(=O)N[C@@H](CCC(N)=O)C(=O)N[C@@H](CCC(=O)O)C(=O)N[C@@H](CCC(=O)O)C(=O)N[C@@H](CC(=O)O)C(=O)N2CCC[C@H]2C(=O)N[C@@H](CC(N)=O)C(=O)NCCC(=O)N[C@@H](CCCCNC(=O)CCCC[C@@H]2SC[C@@H]3NC(=O)N[C@@H]32)C(N)=O)C(C)C)NC(=O)[C@H](C(C)C)NC(=O)[C@H](C)NC(=O)[C@H](CCCCN)NC1=O", "target": "Myc proto-oncogene protein (MYC, Homo sapiens, UniProt P01106)", "test": "binding, BLI", "Kd": "0.12 µM"}
{"SMILES": "CC[C@H](C)[C@H](NC(=O)[C@H](Cc1ccccc1)NC(=O)[C@H](CCC(=O)O)NC(=O)[C@H](CCCNC(=N)N)NC(=O)[C@@H](NC(=O)[C@H](C)NC(=O)[C@H](CCC(=O)O)NC(=O)[C@H](CCC(=O)O)NC(=O)[C@H](CCC(=O)O)NC(=O)[C@H](CC(C)C)NC(=O)[C@H](Cc1ccc(O)cc1)NC(=O)[C@H](CCCCN)NC(=O)[C@H](CO)NC(=O)[C@H](CC(C)C)NC(=O)[C@H](CC(=O)O)NC(=O)[C@H](CO)NC(=O)[C@@H](NC(=O)[C@H](Cc1ccccc1)NC(=O)[C@@H](NC(=O)CNC(=O)[C@H](CCC(N)=O)NC(=O)[C@@H](CO)NC(=O)[C@@H](N)Cc1c[nH]cn1)[C@@H](C)O)[C@@H](C)O)C(C)C)C(=O)N[C@@H](C)C(=O)N[C@@H](Cc1c[nH]c2ccccc12)C(=O)N[C@@H](CC(C)C)C(=O)N[C@@H](CCCCN)C(=O)N[C@@H](CC(N)=O)C(=O)NCC(=O)NCC(=O)N1CCC[C@H]1C(=O)N[C@@H](CO)C(=O)N[C@@H](Cc1ccc(O)cc1)C(=O)N[C@@H](CO)C(=O)N[C@@H](CCSC)C(=O)N[C@@H](CCC(=O)O)C(=O)N[C@@H](Cc1c[nH]cn1)C(=O)N[C@@H](Cc1ccccc1)C(=O)N[C@@H](CCCNC(=N)N)C(=O)N[C@@H](Cc1c[nH]c2ccccc12)C(=O)NCC(=O)N[C@@H](CCCCN)C(=O)N1CCC[C@H]1C(=O)N[C@H](C(N)=O)C(C)C", "target": "Glucagon-like peptide 1 receptor (GLP1R, Homo sapiens, UniProt P43220)", "test": "ligand displacement", "Kd": "0.0099 µM"}
{"note": "Some of these lines once more:"}
{"SMILES": "CCCC[C@H](N)C(=O)N[C@H]1CSCCCCCCCCCCSC[C@@H](C(=O)N[C@H](C(N)=O)[C@@H](C)O)NC(=O)[C@H](CCCCN)NC(=O)[C@H](CCCCN)NC(=O)[C@H](CCCCN)NC(=O)[C@H](Cc2ccc(O)cc2)NC(=O)[C@H](CC(N)=O)NC(=O)[C@H](CC(C)C)NC1=O", "target": "GTPase KRas, GDP-bound (KRAS, Homo sapiens, UniProt P01116, C118S/G12V)", "test": "binding, biolayer interferometry", "setting": "GDP-bound form", "Kd": "100 µM"}
{"SMILES": "N[C@H](Cc1ccccc1)P(=O)(O)O", "target": "PAL1 (Petroselinum crispum, UniProt P24481, Y110F)", "test": "ITC", "Kd": "6.2 µM"}
